Published values of several laboratories.
EGFR del752-759: Epidermal growth factor receptor (EGFR, Homo sapiens, UniProt P00533, del752-759)
EGFR G719S: Epidermal growth factor receptor (EGFR, Homo sapiens, UniProt P00533, G719S)

CCN1CCN(Cc2ccc(C(=O)Nc3ccc(C)c(NCc4cnc5[nH]ccc5c4OC)c3)cc2C(F)(F)F)CC1  remaining binding (EGFR del752-759; binding, competition with immobilised ligand; 1 µM): 2%
CNC(=O)C1CCN(c2cc(C)c(F)cc2NC(=O)c2ccc(-c3cc(O)ccc3C)c(C)c2)CC1  remaining binding (EGFR del752-759; binding, competition with immobilised ligand; 1 µM): 63%
CC(C)=CC1OC(C)(C)C2C=C3C(=O)C(Cl)=CC(O)C3C3C(O)C4OC4C(=O)C132 (stereo not shown)  remaining binding (EGFR del752-759; cell-free assay, competition with immobilised ligand; 10 µM): 74%
COc1c(Cl)cccc1Nc1c(-c2ccncc2C#C[C@@]2(C)CCCN2C(=O)/C=C/CN(C)C)[nH]c2c1C(=O)NCC2  remaining binding (EGFR (Homo sapiens, UniProt P00533, T790M); cell-free assay, competition with immobilised ligand; 3 µM): 0.6%
Cc1ccc(-c2c(/C=C(\C#N)C(=O)NC(C)C)n(CCCO)c3ncnc(N)c23)cc1  remaining binding (EGFR G719S; cell-free assay, competition with immobilised ligand; 1 µM): 100%
C=CC(=O)N1CCCC(n2c(=O)c3ncccc3n(Cc3ccc(Oc4ccccc4)cc3)c2=O)C1 (stereo not shown)  remaining binding (EGFR (Homo sapiens, UniProt P00533, G719C); cell-free assay, competition with immobilised ligand; 1 µM): 88%
C=CC(=O)N1CCc2ccc(-n3c(=O)ccc4cnc5ccc(-c6cnn(C)c6)cc5c43)cc21  remaining binding (EGFR del752-759; KINOMEscan; 1 µM; relative to: DMSO control): 74%
Nc1ncc2c(n1)-c1c([nH]c3ccc(C4=CCOCC4)cc13)CCC2  remaining binding (EGFR G719S; binding, competition with immobilised ligand; 1 µM): 85%
CNC1C[S+]2CC[S+]3CC[S+](C1)[Ru-4]321([N]=C=S)[n]2c3ccc(OC)cc3c3c4c(c5cc(F)c[n+]1c5c32)C(=O)NC4=O (stereo not shown)  remaining binding (EGFR (Homo sapiens, UniProt P00533, L861Q); KinomeScan; 0.1 µM; relative to: untreated): 84%
CCN1CCN(Cc2ccc(NC(=O)c3ccc(C)c(NC(=O)c4cncc(-c5cccs5)c4)c3)cc2C(F)(F)F)CC1  remaining binding (EGFR G719S; binding, competition with immobilised ligand; 1 µM): 0.3%
